Measurements of several laboratories.
Parts stem from different laboratories: compare values within a part only. Changes are numbered by the printed parent chain.

Set 1
Target: Histone acetyltransferase KAT6A, winged helix 2, GST fusion (KAT6A, Homo sapiens, UniProt Q92794, residues 85-181)
Method: protein binding microarray
Molecule type: double-stranded DNA, one strand shown
Matrix: in vitro
Tested at: not given
Notes: 8-mer, flanks averaged, mean of 2 arrays, mostly near background
Relative to: not given
Direction: higher = stronger binding
Construct (chain): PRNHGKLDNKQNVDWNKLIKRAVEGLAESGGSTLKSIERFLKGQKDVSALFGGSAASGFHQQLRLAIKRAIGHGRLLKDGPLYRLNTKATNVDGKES
Strand	E-score
ATGTAGTC	-0.0974
CTGCCTAC	0.147
GCGAATAA	-0.0584
ATACCTAG	-0.163
AGGAACAC	0.0304
GGGAAGAC	0.012
AGATCCGA	0.0695
ATGTTAGC	0.034
ACAATCGA	0.101
GAGGTCTA	-0.0568
CCTAAACC	-0.0919
GAATGTCC	-0.033
AGTGCACC	-0.0588
AATGGGGT	-0.251
TTAAAAAA	0.174
ACACCGGG	0.0248
ACCTGACG	0.0255
CAAAAAAA	0.188
GTCTAACA	-0.228
ACCTGCAT	0.168
GAGGACTA	-0.138
GGTGACGA	0.0168
CGATCGGA	-0.0531
AGTGGGCC	-0.0833
AATGCATT	-0.0553

Set 2
Target: Prothrombin, mature alpha-thrombin (F2, Homo sapiens, UniProt P00734)
Method: aptamer microarray, sandwich
Molecule type: DNA with 2'F-ANA
Matrix: in vitro
Tested at: 200 nM
Notes: whole 15-mer aptamer, many near background
Added: Cy3 exosite-II aptamer, 400 nM
Direction: higher = stronger binding
Strand: GGTTGGTGTGGTTGG
Modification	mean fluorescence intensity [a.u.]
2'F-ANA at 4 7 11 13	233
2'F-ANA at 1 3 6 7 10 11 13	71.4
2'F-ANA at 2 3 5 8 14	55.5
2'F-ANA at 1 2 4 7 9 11 12 14 15	61.3
2'F-ANA at 1 2 4 7 8 9 10 12	68.4
2'F-ANA at 3 4 5 6 9 10 11 13	60.5
2'F-ANA at 6 8 9 10 13	139
2'F-ANA at 1 4 8	193
2'F-ANA at 2 5 9 14 15	49.8
2'F-ANA at 1 2 3 4 5 9 11 14	74.4
2'F-ANA at 1 2 6 9 10	56.2
2'F-ANA at 4 9 10 11 12 13 15	76.1
2'F-ANA at 1 5 7 8 10 11 14 15	48.4
2'F-ANA at 2 6 7 8 13	347
2'F-ANA at 2 6 9 10 12 13 14	86.5
2'F-ANA at 1 6 12 13	294
2'F-ANA at 2 3 7 8 11 13 15	680
2'F-ANA at 2 3 7 8 9 10 11 12	379
2'F-ANA at 2 3 5 8 9 10 11 13 15	53.5
2'F-ANA at 2 5 6 8 11 14 15	51.2
2'F-ANA at 2 3 4 6 9 11 12 13 14	216
2'F-ANA at 2 7 11 12 13 14	179
2'F-ANA at 3 9 10 11 13 15	475
2'F-ANA at 1 2 3 4 5 6 8 9 11 13 14	50.3
2'F-ANA at 2 4 10 11 13 15	70.1

Set 3
Target: CCNA2, cyclin fold, Cln2 fusion (human)
Method: yeast growth competition, sequencing
Matrix: yeast
Notes: strong parent motif
Relative to: not given
Direction: higher = stronger binding
Starting sequence: CDT1 docking peptide (human); PPARRRLRLSVDE
Substitution	normalised enrichment score
PPARRRLRLSVAE [D12A]	5.45
PPARRRLRFSVDE [L9F]	5.8
PPARARARLSVDE [R5A L7A]	0.102
APARRRLRLSVDE [P1A]	3.58
PPAARRLRLSVDE [R4A]	1.97
PPARRRLRLSVDA [E13A]	5.01
PPARRRARLSVDE [L7A]	1.16
PPARRRLRASVDE [L9A]	0.669
PPARKRLRLSVDE [R5K]	1.04

Set 4
Target: TEF, bZIP domain (human)
Method: DHFR protein complementation
Matrix: yeast
Notes: single substitutions, most at no-binding floor
Relative to: wild-type JUN-FOS pair
Direction: higher = stronger binding
Starting sequence: JUN, bZIP domain (human); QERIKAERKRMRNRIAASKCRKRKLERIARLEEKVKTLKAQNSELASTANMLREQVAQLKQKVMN; partner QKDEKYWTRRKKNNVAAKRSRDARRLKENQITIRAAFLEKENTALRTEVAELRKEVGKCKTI
Substitution	binding fitness [natural log]
L45W	-1.46
L31P	-1.5
E32R	-1.38
A49M	-1.51
Q41Y	-1.32
N42R	-1.49
A40R	-1.44
L52K	-1.56
E44N	-1.27
L31D	-1.56
L38F	-1.56
T37C	-1.41
K36W	-1.42
A40T	-1.29
L38N	-1.58
R53L	-1.48
A29G	-1.32
A46R	-1.38

Set 5
Target: Centromere-binding protein 1, full length, N-terminal tag (CBF1, Saccharomyces cerevisiae, UniProt P17106, residues 1-351)
Sequence of UniProt P17106 (whole entry, looked up): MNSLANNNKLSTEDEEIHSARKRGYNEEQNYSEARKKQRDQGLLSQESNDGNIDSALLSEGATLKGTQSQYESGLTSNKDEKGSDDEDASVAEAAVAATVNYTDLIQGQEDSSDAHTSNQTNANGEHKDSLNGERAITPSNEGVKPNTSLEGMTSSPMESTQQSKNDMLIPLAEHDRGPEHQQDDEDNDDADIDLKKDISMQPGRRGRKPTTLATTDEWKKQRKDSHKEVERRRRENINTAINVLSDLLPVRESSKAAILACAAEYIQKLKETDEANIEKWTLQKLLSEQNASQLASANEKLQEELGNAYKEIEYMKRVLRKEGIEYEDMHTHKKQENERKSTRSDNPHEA
Method: protein-binding microarray
Molecule type: double-stranded DNA, one strand shown
Matrix: in vitro
Tested at: 0.8 µM
Notes: whole 60-bp probe, no competitor
Direction: higher = stronger binding
Strand	fluorescence intensity [a.u.]
CTATACCAACAGCACGGCATGATGACTCCAAACTTCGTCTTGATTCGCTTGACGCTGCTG	556
TGTACGAAGCTATGGCATGCGCATATAGTAGTTAGGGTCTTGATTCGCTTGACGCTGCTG	531
CTAGGTGAGCAAACGCATGTGGAAATGAACAACTTCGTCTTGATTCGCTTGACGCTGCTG	520
GAAGTGGGTGTCCATGTGATTTAAATGATAAATTAGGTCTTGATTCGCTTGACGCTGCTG	2550
GAAAGGACATTATCACTCATCACCATGAACATTTAGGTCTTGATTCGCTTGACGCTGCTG	528
CTATTTATACACTATCACGCACATTAGGGTTCTTTCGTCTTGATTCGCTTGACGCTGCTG	619
CTATTTGTTTCGTACTTCGTGACTGTTTGGCATTTCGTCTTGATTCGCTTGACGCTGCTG	654
GAACTCAATTGGAGTCACGCTGCCGTGAGCATCTAGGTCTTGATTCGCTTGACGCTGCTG	1300
CTATATTTAAAATATCAGCAGAGGCGTAAAAGTTTCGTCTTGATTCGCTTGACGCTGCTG	528
GAAGCATGACCGTGTATGGTGACATATAAATGGTAGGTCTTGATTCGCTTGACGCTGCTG	805
GAATGTACTTAGCGTCACGCGCTATGGAAATATTAGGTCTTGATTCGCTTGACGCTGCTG	1940
CTAGTATTGATAATTAACGTGTCTATGTGATGCTTCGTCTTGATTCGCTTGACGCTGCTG	539
CTAGTGAAAATAGATCTGCTGATAAATAATGCATTCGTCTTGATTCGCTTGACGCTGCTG	847
CTACAGGTAACAAATCTGGTGAAATCACCATTATTCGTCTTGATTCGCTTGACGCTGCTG	496
GAATATGAGCCTGATAACGTGAGTCATTCGTTTTAGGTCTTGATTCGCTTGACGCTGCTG	767
GAATTTGGATAATTTCACGAGGGGAAATGGACATAGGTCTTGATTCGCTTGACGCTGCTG	602
GAAATACCGCCTTCTCACGTGGTACAGGCACAATAGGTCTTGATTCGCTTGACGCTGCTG	4590
GAACAATAAACAAATGAAATCACGTTCAACTTCTAGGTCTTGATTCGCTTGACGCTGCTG	1090
CTACAGCGAATGCACCACCTCCAGAGGCATTCCTTCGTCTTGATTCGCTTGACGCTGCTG	492
GAATCATACTAGTCACACGTTGCTCGAGAACAGTAGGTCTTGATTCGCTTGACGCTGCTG	765
CTACGCTCTTGTTTTCGCGTGCCTCTTCTACAATTCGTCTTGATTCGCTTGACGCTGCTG	567
GAAAAGGACTTATAAAACGTGAACTTTCTAGTTTAGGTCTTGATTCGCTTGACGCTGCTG	557
GAATATTAGCAACAGCACGAGCACATAATGTCTTAGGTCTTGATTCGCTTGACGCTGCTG	723

Set 6
Target: ABI1, truncated, D143A, DHFR fusion (Arabidopsis thaliana)
Method: DHFR PCA, deep sequencing
Matrix: yeast
Notes: methotrexate growth selection, single substitutions
Added: (+)-ABA 58 µM
Relative to: wild-type fitted maximum
Direction: higher = stronger binding
Starting sequence: PYL1, truncated, DHFR fusion (Arabidopsis thaliana); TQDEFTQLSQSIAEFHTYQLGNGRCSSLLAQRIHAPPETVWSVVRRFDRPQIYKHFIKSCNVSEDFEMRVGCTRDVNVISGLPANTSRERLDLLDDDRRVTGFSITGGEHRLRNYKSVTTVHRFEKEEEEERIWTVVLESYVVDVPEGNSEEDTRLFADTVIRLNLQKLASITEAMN; partner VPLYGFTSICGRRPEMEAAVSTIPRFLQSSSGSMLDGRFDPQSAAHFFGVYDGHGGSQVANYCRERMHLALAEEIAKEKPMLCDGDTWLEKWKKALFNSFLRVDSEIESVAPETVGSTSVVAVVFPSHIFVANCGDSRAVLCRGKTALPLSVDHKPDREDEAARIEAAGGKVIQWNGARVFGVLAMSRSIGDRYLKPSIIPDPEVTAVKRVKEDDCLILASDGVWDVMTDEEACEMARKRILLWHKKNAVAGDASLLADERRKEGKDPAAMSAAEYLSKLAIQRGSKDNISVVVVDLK
Substitution	relative binding score [%]
F56K	-6.51
Q167H	78.4
R111W	9.67
M176E	81
L82H	0.12
T106R	62
L82E	-0.234
N177A	76.8
P83A	71.5
R123I	56.5
I162D	-3.65
G108Q	6.85
K168H	80.1
T160L	79.3
G23D	90
P37G	21.6
